# Measurements gathered from unrelated publications.
# Compare with care: the assays were run in different laboratories. Values joined by “and” are separate records of one study, mostly repeats; a detail may differ.
# Target: Discoidin domain-containing receptor 2 (DDR2, Homo sapiens, UniProt Q16832)
# Sequence (Q16832 22-855, as in one of the studies): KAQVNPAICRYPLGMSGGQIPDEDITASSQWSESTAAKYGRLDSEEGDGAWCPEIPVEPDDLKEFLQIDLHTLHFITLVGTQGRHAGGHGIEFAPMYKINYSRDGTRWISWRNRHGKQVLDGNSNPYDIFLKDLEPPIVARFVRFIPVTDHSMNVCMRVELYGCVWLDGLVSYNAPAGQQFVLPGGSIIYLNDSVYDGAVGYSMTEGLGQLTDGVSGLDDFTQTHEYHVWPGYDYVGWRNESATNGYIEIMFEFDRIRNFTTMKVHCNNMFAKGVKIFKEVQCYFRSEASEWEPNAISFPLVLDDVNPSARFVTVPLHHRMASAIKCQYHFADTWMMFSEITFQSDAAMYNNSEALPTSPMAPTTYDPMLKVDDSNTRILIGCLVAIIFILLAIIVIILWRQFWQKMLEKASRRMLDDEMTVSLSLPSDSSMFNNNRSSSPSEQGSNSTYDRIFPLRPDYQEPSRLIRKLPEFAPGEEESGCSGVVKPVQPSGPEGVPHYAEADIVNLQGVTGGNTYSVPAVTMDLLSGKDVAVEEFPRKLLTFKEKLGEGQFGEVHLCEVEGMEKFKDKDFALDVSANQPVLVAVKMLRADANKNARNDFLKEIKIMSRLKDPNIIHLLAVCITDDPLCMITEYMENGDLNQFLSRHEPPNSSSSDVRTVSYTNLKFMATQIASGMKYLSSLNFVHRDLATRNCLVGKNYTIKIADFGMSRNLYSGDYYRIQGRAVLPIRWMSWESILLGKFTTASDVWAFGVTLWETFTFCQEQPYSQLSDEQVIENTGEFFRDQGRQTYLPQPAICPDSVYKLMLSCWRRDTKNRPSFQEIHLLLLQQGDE
SMILES,observed,mode,technique,tested at,baseline,measurement,result
CCN1CCN(Cc2ccc(NC(=O)c3ccc(C)c(NC(=O)c4cncc(-c5cccs5)c4)c3)cc2C(F)(F)F)CC1,binding,,competition with immobilised ligand,1 µM,,remaining binding,0%
C=CC(=O)Nc1cccc(-c2cnc3[nH]cc(C(=O)NC(C)(C)C)c3n2)c1,enzyme activity,inhibitor,,0.1 µM,,inhibition,0%
COCC12C(=O)NC3C4(C(OC)CC1O)C1CC5(O)C(OC)C(O)C(OC(C)=O)(C1C5OC(=O)c1ccccc1)C3(O)C(OC)C24 (centres unmarked),kinase activity,inhibitor,ProQinase kinase profiling,25 µM,control,remaining activity,98% and 99%
CN1CCN(Cc2ccc(-c3ccc(CO[C@H]4CCC[C@@H]4NC(=O)c4cc(-c5cnn(C)c5)cnc4N)cc3)cc2)CC1,enzyme activity,inhibitor,,0.1 µM,,inhibition,5%
COc1cc(Nc2nc(C)cc(-c3cnn4nc(OC)ccc34)n2)cc(C(F)(F)F)c1,,inhibitor,,1 µM,control,remaining activity,65%
COc1c(OCCCN2CCOCC2)ccc2c1N=C(NC(=O)c1cnc(N)nc1)N1CCN=C21,kinase activity,inhibitor,,1 µM,untreated control,remaining activity,106%
CNC(=O)c1ccc(CNC(=O)c2cnn3ccccc23)cc1,,,competition binding,,DDR2 over DDR1,selectivity ratio,3.3
Nc1ncc(-c2cc(-c3cnn(CC(F)(F)F)c3)ncc2F)nc1C(=O)NC1CNCC(F)C1 (centres unmarked),enzyme activity,,,1 µM,DMSO control,remaining activity,98.6%
CNC(=O)c1ccc2c(c1)nc(-c1cn(CC(=O)c3ccccc3)c3ccccc13)n2CC1CCCCN1C(=O)OC(C)(C)C (centres unmarked),,,competition binding,,DDR2 over DDR1,selectivity ratio,41
NC(=O)C[C@H]1CCc2sc3ncnc(O[C@H]4CC[C@H](N5CCOCC5)CC4)c3c21,enzyme activity,inhibitor,,10 µM,,inhibition,7%
CNC(=O)Nc1ccc(Cc2ccc(NC(=O)c3cc(Br)c(=O)n(CC4CC4)c3)cc2)cc1,,,competition binding,,DDR2 over DDR1,selectivity ratio,17
O=C(Nc1ccc(Oc2ncnc3[nH]cc(-c4ccccc4)c23)c(F)c1)c1c2n(n(-c3cc(F)ccc3F)c1=O)CCCC2,enzyme activity,inhibitor,,0.5 µM,,inhibition,16%
CNC1C[S+]2CC[S+]3CC[S+](C1)[Ru-4]321([N]=C=S)[n]2c3ccc(OC)cc3c3c4c(c5cc(F)c[n+]1c5c32)C(=O)NC4=O (centres unmarked),,,KinomeScan,0.1 µM,untreated,remaining binding,100%
CNC(=O)C(Cc1ccc(I)cc1)NC(=O)CNC1CCN(C(=O)OC(C)(C)C)CC1 (centres unmarked),,,competition binding,,DDR2 over DDR1,selectivity ratio,3.5

# For quick reference, copied from above:
SMILES,observed,mode,technique,tested at,baseline,measurement,result
CCN1CCN(Cc2ccc(NC(=O)c3ccc(C)c(NC(=O)c4cncc(-c5cccs5)c4)c3)cc2C(F)(F)F)CC1,binding,,competition with immobilised ligand,1 µM,,remaining binding,0%
